Measured values of several laboratories.
Parts stem from different laboratories: compare values within a part only.

Study 1 — technique: RNA Bind-n-Seq; molecule type: RNA; matrix: in vitro; concentration: not given; baseline: input RNA pool; reading: higher = stronger binding
Target: RING finger protein unkempt homolog, zinc fingers 1-6, GST-SBP tag (UNK, Homo sapiens, UniProt Q9C0B0, residues 30-357)
Chain of UniProt Q9C0B0 (30-357, looked up): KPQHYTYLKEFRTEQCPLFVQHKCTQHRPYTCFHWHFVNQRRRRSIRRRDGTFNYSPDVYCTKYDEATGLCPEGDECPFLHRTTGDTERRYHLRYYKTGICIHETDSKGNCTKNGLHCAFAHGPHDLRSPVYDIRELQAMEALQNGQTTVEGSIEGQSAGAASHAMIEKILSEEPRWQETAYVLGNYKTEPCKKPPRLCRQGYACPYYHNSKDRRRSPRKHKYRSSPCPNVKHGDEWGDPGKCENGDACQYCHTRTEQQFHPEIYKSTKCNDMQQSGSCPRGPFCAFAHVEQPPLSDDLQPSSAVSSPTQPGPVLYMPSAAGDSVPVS
Setting: RNA with constant flanks, human and mouse sites, ends assumed
Constant ends, left off below: GGGAGUUCUACAGUCCGACGAUC … CAACAGAGGAUUGAGCAUCA
Oligonucleotide | bound/input enrichment [ratio]
AAACAAAAAGAAAAAGAAAAAGAAAAAGAAAAAGUUAAAAAAUAAAUAUAAGAGGGAUAAUUUGAUGGUAAUAGUAUCCCAGUACAAAAAGGCUGUAAGAUAGUGAACCACAGUAGUCAU | 6.13
CCAAAUGUUCAGAAGUUGAAAUGGAUUGUUUCUGGGCGUACUGCACGGCAAUUGAAGCAUAGCUACUACAGAAUAACUCACCUUCCAACAAUUCCUGAAAUGGUCCCUUAACUGGAUUAU | 0.102
CUUCCGGGAGGUGCUUGUGUGCCUGGUGCGGGAGCUACGGGGCCCAGGGAUUGUGUUUAAAGUAGUGCUUCUACCAACAUGUCCCGUGGUUCCAGCGCCGGUUUUGACCGCCACAUUACC | 0.102
GAGAUGAACCUUAUGCAUGCGCCUCAAGUUGCAGAUGCUAUUCUAGGCAAUCAGAUGUUCACACAUUAUGACCGGGCUCAUAUUGCUCAACUGUGUGAAAAGGCUGGCCUACUGCAGCGU | 0.148
AAUCGGAAGAAGCUUUCAGAGCUGUUAAGGUACUACACAUCUGCCUCUGGUGAUGAGAUGGUUUCUCUCAAGGACUACUGCACCAGAAUGAAGGAGAACCAGAAACAUAUCUAUUAUAUC | 0.112
GAAGAGGUCCUCGAUCAUGGUGUUAGAAUUGACUGGAUAGUAACAGGUGGUCUGGUGGAUAGCGGGGAGCAUGGCUCAGCACCAGAGCAGAGGCCCAGCCAGCCCUCUGCAGCCCAAACG | 0.264
GACUACAACAUCCAGAAAGAGUCCACUCUGCACUUGGUCCUGCGCUUGAGGGGGGGUGUCUAAGUUUCCCCUUUUAAGGUUUCAACAAAUUUCAUUGCACUUUCCUUUCAAUAAAGUUGU | 0.416
UUCUUUGCCUUCGAGUGUCGCUACCUGGCUGUUCAGCUGUCUCCUGCCAUUCCUGUGUUUGCCGCUAUGCUCUUUCUUUUCUCCAUGGCCACGCUGUUGAGGACAAGUUUCAGUGACCCU | 0.312

Study 2 — technique: protein-binding microarray; molecule type: double-stranded DNA, one strand shown; matrix: in vitro; concentration: 2200 nM top; setting: 60-bp whole probe; with: salmon DNA 0.4 mg/ml; baseline: random background probes; reading: higher = stronger binding; constant ends, left off below: GCCTAGCAC … GTCTTGATTCGCTTGACGCTGCTG
Target: Interferon regulatory factor 7, full length, phosphomimetic (IRF7, Homo sapiens, UniProt Q92985, residues 1-503, S471D/S472D/S475D/S476D/S477D/S483D/S484D/S487D)
Target sequence (chain): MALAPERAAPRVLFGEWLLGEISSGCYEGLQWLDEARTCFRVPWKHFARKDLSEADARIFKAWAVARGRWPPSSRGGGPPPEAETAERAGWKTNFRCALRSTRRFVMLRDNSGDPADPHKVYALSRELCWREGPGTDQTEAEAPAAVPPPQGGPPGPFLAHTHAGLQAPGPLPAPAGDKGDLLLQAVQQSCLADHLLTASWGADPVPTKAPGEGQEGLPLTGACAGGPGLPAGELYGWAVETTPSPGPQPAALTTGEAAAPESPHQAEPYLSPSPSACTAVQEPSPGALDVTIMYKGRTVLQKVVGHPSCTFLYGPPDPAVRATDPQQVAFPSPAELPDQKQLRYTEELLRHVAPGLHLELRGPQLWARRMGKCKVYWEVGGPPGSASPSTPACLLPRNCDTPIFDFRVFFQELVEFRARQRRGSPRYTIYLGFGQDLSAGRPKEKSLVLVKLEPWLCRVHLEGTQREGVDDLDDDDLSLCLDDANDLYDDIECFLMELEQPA
Oligonucleotide | fitted relative affinity [z-score]
GACGGTCTCCTTTTCCTCACGTGCTAG | 1.48
GACGGTTTCGGGTTTCGGTACGTGCTA | 9.9
TTAGGTCTCCTTTGCCTTTAGTGCTAG | 0.771
GACGATTCCAGTTTGGAGACGTGCTAG | 0.686
GTCGATTTCAGTTCCGAGACGTGCTAG | 2.74
TCACCTTTCGGAATACCACTGTGCTAG | 5.4
GCAAGAACAGCTGGTGGGCAGTGCTAG | -0.482
TTAGAACAGGGGTATCGATTAGTGCTA | 0.0326
GTCCTCCTCTCTCTTTCCACGTGCTAG | 3.13
GACGGCCTCGGTCTCGGGACGTGCTAG | -0.732
GACGGTCTCGGTTTCGGGAAGTGCTAG | 2.68

Study 3 — technique: RNA Bind-n-Seq; molecule type: RNA; matrix: in vitro; concentration: 1 µM; setting: whole 134-nt RNA, ends assumed; with: 150 mM KCl; baseline: input library; reading: higher = stronger binding
Target: Ras GTPase-activating protein-binding protein 1, C-terminal RGG region (G3BP1, Homo sapiens, UniProt Q13283)
Chain of UniProt Q13283 (whole entry, looked up): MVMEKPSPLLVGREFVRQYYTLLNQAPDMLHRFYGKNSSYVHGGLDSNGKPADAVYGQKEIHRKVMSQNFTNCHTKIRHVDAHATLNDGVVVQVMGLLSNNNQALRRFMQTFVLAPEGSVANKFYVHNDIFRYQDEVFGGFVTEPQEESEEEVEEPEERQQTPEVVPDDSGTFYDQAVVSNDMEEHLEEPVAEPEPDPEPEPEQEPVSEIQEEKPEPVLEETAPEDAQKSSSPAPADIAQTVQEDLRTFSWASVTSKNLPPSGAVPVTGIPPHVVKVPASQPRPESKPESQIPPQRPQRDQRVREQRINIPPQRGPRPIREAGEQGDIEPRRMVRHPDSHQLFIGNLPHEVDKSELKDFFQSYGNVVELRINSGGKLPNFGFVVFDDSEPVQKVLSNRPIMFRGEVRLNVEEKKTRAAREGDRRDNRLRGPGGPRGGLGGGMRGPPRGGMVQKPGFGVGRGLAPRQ
Constant ends, left off below: GGGAGUUCUACAGUCCGACGAUC … UGGAAUUCUCGGGUGUCAAGG
Oligonucleotide | log2 enrichment
UCCUCAAGUCCUGUGCUACACAUCGUAUGUACCGAAUCGGGGAGGAGGAGGGAAAGUAUUAUGUUACGCCGUUCGGAUCUGCACUUCCAG | -0.502
GUCCUGUGCUACACAUCGUAUGUACCGAAUCAAAUUUUUAAAUUUUUAAAUUUUUAAAAAAGUAUUAUGUUACGCCGUUCGGAUCUGCAC | -2.32
UGGCCCUGGUGGCAUGCGGGGAGGAAGAGGUAGCCUCAUGGAUCGUGGUGGUCCCGGUGGAAUGUUCAGAGGUGGCCGUGGUGGAGACAG | 1.76
GUCCUGUGCUACACAUCGUAUGUACCGAAUCAAACCCAAAUUUUUUUAAACCCCCAAAAAAGUAUUAUGUUACGCCGUUCGGAUCUGCAC | -0.859
GUCCUGUGCUACACAUCGUAUGUACCGAAUCGGGGAAAGGGGUUUGGGGAAAAAGGGGAAAGUAUUAUGUUACGCCGUUCGGAUCUGCAC | 2.82
UUAAUGAUAUAAGUAGAGAGUAGUAUCCUGGUGGAGUUGUAACCACUAUUUUUGUUUUCUAGAUCCCUAUGGUUCAGGAGGCCAGAAAUU | -1.35
UCAAGUCCUGUGCUACACAUCGUAUGUACCGAAUCGGAAAAAAAGGAAAGGUGGAAAGUAUUAUGUUACGCCGUUCGGAUCUGCACUUCC | -1.94
AAGUCCUGUGCUACACAUCGUAUGUACCGAAUCGGAAAAAGGAAAAAAAGGAAAGGAAAGUAUUAUGUUACGCCGUUCGGAUCUGCACUU | -2.21
UCAAGUCCUGUGCUACACAUCGUAUGUACCGAAUCGGGCCGGGGCCGGGGCCGGAAAGUAUUAUGUUACGCCGUUCGGAUCUGCACUUCC | -2.46

Other studies, line by line
Substance | target | test | test system | conditions | how to read | endpoint | result
PhoQ, residues 284 288 289 292 302 303 ALASRC | PhoP, residues 12 14 15 18 19 NMSSL (Escherichia coli, UniProt P23836) | Sort-seq, refers to: YFP reporter | E. coli | PhoQ-PhoP variant library, with: 10 µM Mg2+ | baseline: high Mg2+ state, higher = stronger signaling | fold induction | 6.41

A few entries again (study 3):
Oligonucleotide | log2 enrichment
UCCUCAAGUCCUGUGCUACACAUCGUAUGUACCGAAUCGGGGAGGAGGAGGGAAAGUAUUAUGUUACGCCGUUCGGAUCUGCACUUCCAG | -0.502
GUCCUGUGCUACACAUCGUAUGUACCGAAUCAAAUUUUUAAAUUUUUAAAUUUUUAAAAAAGUAUUAUGUUACGCCGUUCGGAUCUGCAC | -2.32
UCAAGUCCUGUGCUACACAUCGUAUGUACCGAAUCGGGCCGGGGCCGGGGCCGGAAAGUAUUAUGUUACGCCGUUCGGAUCUGCACUUCC | -2.46
UGGCCCUGGUGGCAUGCGGGGAGGAAGAGGUAGCCUCAUGGAUCGUGGUGGUCCCGGUGGAAUGUUCAGAGGUGGCCGUGGUGGAGACAG | 1.76
